Results pooled from the literature.
Each line is one published result; not all experiments were run side by side. Numbers after ± are the reported error. ≈ marks a conversion by molar mass, not a printed value.

`CCCCn1c2ccccc2c2ccnc(-c3ccc(OC)cc3)c21` gave an LD50 of 1110 mg/kg (OECD guideline; Kunming mice, both sexes; oral, single dose, 14 days).
`C=Cc1c(C)c2cc3nc(c(CC(=O)O)c4[nH]c(cc5nc(cc1[nH]2)C(C)=C5CC)c(C)c4C(=O)O)[C@@H](CCC(=O)NCCCC[C@H](NC(C)=O)C(=O)N[C@@H](Cc1ccccc1)C(=O)N[C@@H](Cc1ccccc1)C(=O)N[C@H](C(=O)N[C@@H](CC(C)C)C(=O)N[C@@H](CCCCN)C(=O)N[C@@H](CO)C(=O)NCC(=O)N[C@@H](CCC(N)=O)C(=O)N[C@@H](Cc1ccc(O)cc1)C(=O)N[C@@H](C)C(=O)N[C@@H](CO)C(=O)N[C@@H](Cc1ccc(O)cc1)C(=O)N[C@@H](Cc1c[nH]cn1)C(=O)N[C@@H](CS)C(=O)N[C@@H](Cc1c[nH]c2ccccc12)C(=O)N[C@@H](CS)C(=O)N[C@@H](Cc1c[nH]c2ccccc12)C(=O)N[C@@H](CCCNC(=N)N)C(=O)N[C@@H](CC(=O)O)C(=O)N1CCC[C@H]1C(=O)NCC(=O)N[C@@H](CCCNC(=N)N)C(=O)N[C@@H](CO)C(=O)NCC(=O)NCC(=O)N[C@@H](CO)C(=O)N[C@@H](CCCCN)C(N)=O)C(C)C)[C@@H]3C` — result for cytotoxicity: “not toxic” (CCK-8; HFF, human; 1 to 200 µM, 24 h).
`[2H]C([2H])([2H])C([2H])([2H])C([2H])([2H])OC(C(=O)OC1CCNCC1)(c1ccccc1)c1ccccc1` gave a tmax of 4.9 h (healthy Japanese male subjects, plasma; oral, 15 mg, day 1, mean).
`Nc1nc(Nc2ccc(Cl)cc2)nn1S(=O)(=O)c1ccc2ccccc2c1` gave an LD50 of 3930 mg/kg (male BALB/c mice; oral, 14 (unit not given)).
For `CC1=CC(C)(C)N=C2C=CC(=O)C=C12`, “PCE/NCE ratio reduction” read 54% (female rats, bone marrow; oral, 350 mg/kg, 48 h, three of five animals; relative to: vehicle).
The dephosphorylation of `O=C(Cc1ccc2ccccc2c1)N[C@H](Cc1ccccc1)C(=O)N[C@H](Cc1ccc(O)cc1)C(=O)N[C@H](Cc1ccccc1)C(=O)N[C@H](Cc1ccc(OP(=O)(O)O)cc1)C(=O)O` is reported as under 5% (substrate; HepG2 cell lysate; 500 µM, 1 h, pH 7.4, 37 °C).
`CN(C)C(CNC(=O)Nc1cc(C(F)(F)F)ccc1N1CCOCC1)c1ccncc1` (stereo not drawn) gave a serum magnesium of 6.1 mg/dL (mouse, serum; intraperitoneal, 360 mg/kg single dose).
`Cc1ccc(/C=C/C(=O)O)cc1-c1cc2c(cc1C)C(C)(C)CCC2(C)C` has a blood triglycerides of 269 ± 102 mg/dL (Sprague-Dawley rat, male; oral, 100 mg/kg, 12 h, sesame oil vehicle).
`N=C(N)NCc1ccc(C(=O)NCCCC[C@H](NC(=O)N[C@@H](CCC(=O)O)C(=O)O)C(=O)O)cc1[131I]` has a tissue uptake of 147 ± 14 %ID/g (SCID mouse, PC-3 xenografts, kidneys; 2 h).
For `CC[C@H](C)C(=O)N1CCC(NC(=O)Nc2ccc(OC(F)(F)F)c(F)c2)CC1`, the Tmax difference was 4.8 min (healthy volunteers; oral, 8 mg; relative to: fed over fasted).
For `CN[C@](C)(C[18F])C(=O)O`, the tissue uptake was 8.3 ± 3.7 %ID/g (SCID mouse U87 xenograft, spleen; 60 min, post injection).
`CCCC[C@H]1C(=O)N(C)[C@@H](CCCC)C(=O)N[C@@H](CCCNC(=O)CN2CCN(CC(=O)O)CCN(CC(=O)O)CCN(CC(=O)O)CC2)C(=O)N[C@H](C(=O)NCC(N)=O)CSCC(=O)N[C@@H](Cc2ccc(O)cc2)C(=O)N(C)[C@@H](C)C(=O)N[C@@H](CC(N)=O)C(=O)N2CCC[C@H]2C(=O)N[C@@H](Cc2c[nH]cn2)C(=O)N[C@@H](CC(C)C)C(=O)N(C)CC(=O)N[C@@H](Cc2c[nH]c3ccccc23)C(=O)N[C@@H](CO)C(=O)N[C@@H](Cc2c[nH]c3ccccc23)C(=O)N1C` [gallium-68 labelled] gave a tumour uptake of 7.83 ± 0.22 %ID/g (biodistribution; NOD/SCID mice, CHO-hPD-L1 xenograft, CHO-hPD-L1 tumour; 60 min post injection, after PBS treatment).
`O=P1(NCCCl)NCCCO1` (stereo not drawn) gave an AUC(0-inf) of 1170 ± 144 ng·h/mL (rat, plasma; intravenous, 10 mg/kg CP, added: ketoconazole 0 mg/kg).
For `O=C[C@H](C[C@@H]1CCNC1=O)NC(=O)[C@H](CC1CCCCC1)NC(=O)c1cc2ccccc2[nH]1`, the clearance was 17.4 mL/min/kg (mouse; intravenous, 5 mg/kg).
`CCN(CC)CCOc1ccc(-c2nnn(Cc3ccc(OC)cc3)c2N)cc1` — result for stability: “stable” (Sprague-Dawley rats, plasma; 120 min).
`NC(=O)[C@@H](O)C[C@H]1CCc2sc3ncnc(O[C@H]4CC[C@H](N5CCOCC5)CC4)c3c21` — result for body weight: “not toxic” (NOD/SCID mice, OCI-Ly10 xenograft; intraperitoneal, 100 mg/kg/day twice daily, 14 days).
For `CCNc1cc2[o+]c3cc(NCC)c(C)cc3c(-c3ccccc3C(=O)OCCOCC[18F])c2cc1C`, the tissue uptake was 0.15 ± 0.04 %ID/g (rat, skin; 60 min).
`CSCC[C@@H]1NC(=O)[C@@H]2CSSC[C@H](NC(=O)[C@H](CO)NC(=O)[C@H](C)N)C(=O)N[C@@H](CCCNC(=N)N)C(=O)N[C@@H]([C@@H](C)O)C(=O)N3CCC[C@H]3C(=O)N[C@@H](CCCCN)C(=O)N[C@@H](CC(=O)O)C(=O)N[C@H]3CSSC[C@H](NC(=O)[C@H](CCCCN)NC(=O)[C@H](CCCNC(=N)N)NC(=O)[C@H](CC(N)=O)NC1=O)C(=O)N[C@@H](CCCCN)C(=O)N[C@H]1CSSC[C@H](NC(=O)[C@@H]4CCCN4C(=O)[C@H](CC(=O)O)NC(=O)[C@H](C)NC3=O)C(=O)N[C@@H](C)C(=O)N[C@@H](CCCCN)C(=O)N[C@@H](CCC(=O)O)C(=O)N[C@@H]([C@@H](C)O)C(=O)NCC(=O)N[C@@H](CSSC[C@@H](C(N)=O)NC(=O)[C@H](CCCNC(=N)N)NC(=O)[C@H](CC(N)=O)NC1=O)C(=O)N1CCC[C@H]1C(=O)N[C@@H](Cc1ccc(O)cc1)C(=O)NCC(=O)N[C@@H](CCCCN)C(=O)N2` gave an alkaline phosphatase of 57 U/L (DA rat, pristane-induced arthritis, serum; subcutaneous, 0.1 mg/kg every other day, end of 21-day trial).
For `NC(=O)CC[C@@H](NC(=O)[C@@H](CCC(N)=O)NC(=O)[C@@H](CC(N)=O)NC(=O)[C@@H](CC(N)=O)NC(=O)CNC(=O)Cc1ccc2ccccc2c1)C(=O)N[C@H](CC(N)=O)C(=O)N[C@H](Cc1ccc(OP(=O)(O)O)cc1)C(=O)O`, “maximum storage modulus” read 184 Pa (strain sweep rheology; hydrogel; pH 7.4).
`CC[C@H](C)[C@H](NC(=O)[C@H](CC(=O)O)NC(=O)[C@H](CO)NC(=O)[C@H](CCC(N)=O)NC(=O)[C@H](C)NC(=O)[C@H](CC(=O)O)NC(=O)[C@H](CCC(=O)O)NC(=O)[C@H](Cc1c[nH]cn1)NC(=O)[C@H](Cc1ccc(O)cc1)NC(=O)[C@H](C)NC(=O)[C@H](CC(=O)O)NC(=O)[C@H](CCC(=O)O)NC(=O)[C@H](Cc1c[nH]cn1)NC(=O)[C@H](Cc1ccc(O)cc1)NC(=O)[C@H](C)NC(=O)[C@H](CC(=O)O)NC(=O)[C@H](CCC(=O)O)NC(=O)[C@H](Cc1c[nH]cn1)NC(=O)[C@H](Cc1ccc(O)cc1)NC(=O)[C@H](C)NC(=O)[C@H](CC(=O)O)NC(=O)[C@H](CCC(=O)O)NC(=O)[C@H](Cc1c[nH]cn1)NC(=O)[C@H](Cc1ccc(O)cc1)NC(=O)[C@H](C)NC(=O)[C@H](CC(=O)O)NC(=O)[C@H](CCC(=O)O)NC(=O)[C@H](Cc1c[nH]cn1)NC(=O)[C@@H](N)Cc1ccc(O)cc1)C(=O)N[C@H](C(=O)N[C@@H](C)C(=O)N[C@@H](Cc1c[nH]cn1)C(=O)N[C@@H](CC(C)C)C(=O)N[C@@H](CC(C)C)C(=O)O)C(C)C` has an MPV of 7.4 ± 0.7 fL (mouse, SN model; dose not given).
`CCCCCCCCCCCCC(=O)O.O=C1CCCC2C3CCCN4CCCC(CN12)C34` (stereo not drawn) — result for “standard Gibbs energy of micellization”: -8.8 kcal/mol (electrical conductivity; water; 313.15 K, critical micelle concentration).
With `O=S(=O)(O)C(F)(F)C(F)(F)OC(F)(C(F)(F)F)C(F)(F)OC(F)C(F)(F)F` (stereo not drawn) the median concentration was 4.14 ng/mL (human, exposed residents, serum; November 2017, 5 months after discharge).
`N#Cc1ccc(NC(=O)c2cccnc2)cc1Cl` gave a thermodynamic solubility of 27.6 ± 2.1 µg/mL (≈ 107 µM) (sodium acetate buffer; 24 h, pH 4.0, room temperature).
`CC(=CCC(O)C(C)=Cc1csc(C)n1)CC=CC(C)C(O)C(C)C(=O)C(C)(C)C(O)CC(=O)O` (stereo not drawn) has an AUC of 562 ± 446 ng·h/mL (human, plasma; intravenous infusion, 36 mg/m2 KOS-1584, 3 h infusion, cycle 1).

Some of these lines once more:
`CC[C@H](C)[C@H](NC(=O)[C@H](CC(=O)O)NC(=O)[C@H](CO)NC(=O)[C@H](CCC(N)=O)NC(=O)[C@H](C)NC(=O)[C@H](CC(=O)O)NC(=O)[C@H](CCC(=O)O)NC(=O)[C@H](Cc1c[nH]cn1)NC(=O)[C@H](Cc1ccc(O)cc1)NC(=O)[C@H](C)NC(=O)[C@H](CC(=O)O)NC(=O)[C@H](CCC(=O)O)NC(=O)[C@H](Cc1c[nH]cn1)NC(=O)[C@H](Cc1ccc(O)cc1)NC(=O)[C@H](C)NC(=O)[C@H](CC(=O)O)NC(=O)[C@H](CCC(=O)O)NC(=O)[C@H](Cc1c[nH]cn1)NC(=O)[C@H](Cc1ccc(O)cc1)NC(=O)[C@H](C)NC(=O)[C@H](CC(=O)O)NC(=O)[C@H](CCC(=O)O)NC(=O)[C@H](Cc1c[nH]cn1)NC(=O)[C@H](Cc1ccc(O)cc1)NC(=O)[C@H](C)NC(=O)[C@H](CC(=O)O)NC(=O)[C@H](CCC(=O)O)NC(=O)[C@H](Cc1c[nH]cn1)NC(=O)[C@@H](N)Cc1ccc(O)cc1)C(=O)N[C@H](C(=O)N[C@@H](C)C(=O)N[C@@H](Cc1c[nH]cn1)C(=O)N[C@@H](CC(C)C)C(=O)N[C@@H](CC(C)C)C(=O)O)C(C)C` has an MPV of 7.4 ± 0.7 fL (mouse, SN model; dose not given).
`CCCCCCCCCCCCC(=O)O.O=C1CCCC2C3CCCN4CCCC(CN12)C34` (stereo not drawn) — result for “standard Gibbs energy of micellization”: -8.8 kcal/mol (electrical conductivity; water; 313.15 K, critical micelle concentration).
